Assay results from different studies.
Every numbered part comes from another study and shows a few of its results, in no order.

Sample 1 — technique: RNA Bind-n-Seq; molecule type: RNA; medium: in vitro; concentration: 1 µM; notes: whole 134-nt RNA, ends assumed; together with: 150 mM KCl; relative to: input library; direction: higher = stronger binding
Target: Ras GTPase-activating protein-binding protein 1, RRM domain (G3BP1, Homo sapiens, UniProt Q13283)
Chain of UniProt Q13283 (whole entry, looked up): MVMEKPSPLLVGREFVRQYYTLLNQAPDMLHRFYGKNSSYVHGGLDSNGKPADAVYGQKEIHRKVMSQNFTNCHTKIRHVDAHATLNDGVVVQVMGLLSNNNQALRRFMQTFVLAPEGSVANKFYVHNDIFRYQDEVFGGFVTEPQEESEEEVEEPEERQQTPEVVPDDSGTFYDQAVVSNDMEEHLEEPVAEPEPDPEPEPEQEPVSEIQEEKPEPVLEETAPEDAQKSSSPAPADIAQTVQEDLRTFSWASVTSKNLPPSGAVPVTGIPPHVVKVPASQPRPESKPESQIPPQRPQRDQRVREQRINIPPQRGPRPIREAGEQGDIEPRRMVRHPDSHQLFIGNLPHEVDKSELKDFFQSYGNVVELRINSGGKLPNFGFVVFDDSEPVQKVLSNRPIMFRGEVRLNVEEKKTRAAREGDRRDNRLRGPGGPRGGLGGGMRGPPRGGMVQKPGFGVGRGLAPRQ
| Oligonucleotide | log2 enrichment |
| --- | --- |
| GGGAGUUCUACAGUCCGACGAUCACCAUGCAGGUGGGCCUCUUUGGGAAGUGGGGCAAGGGGGGGAUAGGGAGGGGGGUAACACUUUGGGAACAGGUGGUCCCAGGUCGUUUCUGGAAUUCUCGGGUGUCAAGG | -0.384 |
| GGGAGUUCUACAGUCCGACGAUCCAAGUCCUGUGCUACACAUCGUAUGUACCGAAUCGGGUUUGGGGUUUGGGUUUGGAAAGUAUUAUGUUACGCCGUUCGGAUCUGCACUUCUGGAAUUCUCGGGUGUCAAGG | -0.513 |
| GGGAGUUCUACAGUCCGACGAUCUCCCUGAAUCACCGACUGGAGGAGAGUUACCUACAAGAGCCUUCAUCCAGGAGCAUCCACACUGCAAUGAUAUAGGAAUGAGGUCUGAACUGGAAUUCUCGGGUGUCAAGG | -0.15 |
| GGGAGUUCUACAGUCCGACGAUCCUGUGCUACACAUCGUAUGUACCGAAUCAAAUUUUUUUAAACCCCCCCAAACCCCCCCAAAAAAGUAUUAUGUUACGCCGUUCGGAUCUGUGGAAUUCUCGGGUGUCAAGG | -1.06 |
| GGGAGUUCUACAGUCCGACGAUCUCAAGUCCUGUGCUACACAUCGUAUGUACCGAAUCGGGGCCGGGGCCGGCCGGGAAAGUAUUAUGUUACGCCGUUCGGAUCUGCACUUCCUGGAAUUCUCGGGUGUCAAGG | -0.931 |
| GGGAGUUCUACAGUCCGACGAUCCCUCAAGUCCUGUGCUACACAUCGUAUGUACCGAAUCGGGUGGGUGGGUGGGAAAGUAUUAUGUUACGCCGUUCGGAUCUGCACUUCCAGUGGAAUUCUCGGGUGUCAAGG | 0.641 |
| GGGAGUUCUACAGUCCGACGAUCUCCUGUGCUACACAUCGUAUGUACCGAAUCGGGGAAAAAAAGGGGUUUUUGGGGAGGGGAAAGUAUUAUGUUACGCCGUUCGGAUCUGCAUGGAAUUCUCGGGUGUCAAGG | 0.815 |
| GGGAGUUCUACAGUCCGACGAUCUCCUGUGCUACACAUCGUAUGUACCGAAUCGGUUUUUUGGUUUUUUGGGUUUUUUGGGGAAAGUAUUAUGUUACGCCGUUCGGAUCUGCAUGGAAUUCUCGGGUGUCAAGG | -0.249 |
| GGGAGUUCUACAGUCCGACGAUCUGCUGUUCAGGUGGUGGAGAAGAAGAUGGAACCCCAGGCUGCCUGGCUACAGAGCCUGGAGGGAUGCAUGUGGACAGCCAAGAAGAAGCUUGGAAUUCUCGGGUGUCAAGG | -0.404 |

Sample 2 — technique: RNA Bind-n-Seq; molecule type: RNA; medium: in vitro; concentration: 100 nM; relative to: input RNA pool; direction: higher = stronger binding
Target: RING finger protein unkempt homolog, zinc fingers 1-6, SBP tag (UNK, Homo sapiens, UniProt Q9C0B0, residues 30-357)
Chain of UniProt Q9C0B0 (30-357, looked up): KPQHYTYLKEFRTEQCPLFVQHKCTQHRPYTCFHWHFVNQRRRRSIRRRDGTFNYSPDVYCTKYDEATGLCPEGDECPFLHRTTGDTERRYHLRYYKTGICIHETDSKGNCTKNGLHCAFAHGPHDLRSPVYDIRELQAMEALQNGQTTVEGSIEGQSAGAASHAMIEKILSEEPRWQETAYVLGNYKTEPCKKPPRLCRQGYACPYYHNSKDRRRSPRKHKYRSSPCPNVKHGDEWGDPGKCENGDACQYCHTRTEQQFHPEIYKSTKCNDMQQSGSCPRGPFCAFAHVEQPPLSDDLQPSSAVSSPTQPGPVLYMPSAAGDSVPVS
Notes: RNA with constant flanks, vertebrate orthologous sites, ends assumed
| Oligonucleotide | bound/input enrichment [ratio] |
| --- | --- |
| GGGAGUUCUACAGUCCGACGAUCCAUUAACACAUGAAAUGUCUCCAGGGGGGUAUUAGAUUUGAUUUCUUACAUAUAAAACAAACCAACCAACCAUUUUUAAAGUAGAAGAGGGUUUUAGAUAGUGAAUAAAAUAUUCUUUUUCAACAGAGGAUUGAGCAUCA | 1.53 |
| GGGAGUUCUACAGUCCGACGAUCUUUUUGUUAACACGUGACACUGUGUAUAGAGGAUCUUCUGAGGGAGGAGGAAGGAUGCUCUAGCAGUGGUGCCUGGGUUCCUGGCCUCCAGUGCCCCACCACCCUCACCACCCCACCUGGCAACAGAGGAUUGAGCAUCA | 0.328 |
| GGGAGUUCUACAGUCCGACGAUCUAUUGUAUGUAGAGAAAAAUUUUCAUUGACUCCCAUUGUGGAAUUCCCUAGCAAUUUAUUUAGACCUAAUUUUUUAAAUUCAAGCUUACUGUAUUAGUCAUUUUUAGCCCAUAAUUAAAACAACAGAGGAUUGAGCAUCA | 11.8 |
| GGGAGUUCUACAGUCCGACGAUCGCUUUGGACCUUGGAGCCGAACCAGGGAGUGAGCAAAAAUAAAGCAGACUUGUAAAAUUAUAGCCACAUGCAGCUGCAUAACAAUAGCACUACCACUAGCAGCUGUGUUAAGAUAUUUAUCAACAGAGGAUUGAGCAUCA | 0.518 |
| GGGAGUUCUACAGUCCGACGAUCUUCAGGCACAACUGACUGGUUCACAGCAUUCCUUACAUAGUUACCUAGCAAAUACAGGUGUGGUUAAUUUUCAGGAAACAACCAGGCAGUCAUCUUUACCUUGUAGCCCAGUCAGAGAUUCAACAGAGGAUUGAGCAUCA | 0.996 |
| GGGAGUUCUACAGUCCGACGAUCGCAAUGAAAAAGCAGCCCUUCUCCCAGCCCCCCUUUCACUAGGAGAUACAACCAUUACCAUAGAAGAGCAAUUAAACUCGAUAAAUUUAUCUUUUCAGGAUGAUCCAGACUCCAGUACCACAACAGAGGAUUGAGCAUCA | 1.13 |
| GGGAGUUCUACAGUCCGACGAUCGUCAUCGGAUUGGAUGAAGACCGUCCCGAGUUACAACCAAACCAAUAGCUCCAUGGACUUCAGAAAUUACAUGAUGAGAGAUGAGAAUCUGGAACCGCUGCCCAAAAACUGGGAGAUGGCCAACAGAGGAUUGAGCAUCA | 0.416 |

Sample 3 — target: UBE2G1 UBC core domain (UniProt P62253); technique: yeast two-hybrid; medium: yeast; notes: mostly zero background; relative to: not given; direction: higher = stronger interaction
B1: RNF183 RING domain (UniProt Q96D59); chain EQQGRELEAECPVCWNPFNNTFHTPKMLDCCHSFCVECLAHLSLVTPARRRLLCPLCRQPTVLASGQP
B2: MKRN2 RING domain (UniProt Q9H000); chain FAFQASQDKVCSICMEVILEKASASERRFGILSNCNHTYCLSCIRQWRCAKQFENPIIKSCPECRVISEFVIPSV
Target sequence (chain): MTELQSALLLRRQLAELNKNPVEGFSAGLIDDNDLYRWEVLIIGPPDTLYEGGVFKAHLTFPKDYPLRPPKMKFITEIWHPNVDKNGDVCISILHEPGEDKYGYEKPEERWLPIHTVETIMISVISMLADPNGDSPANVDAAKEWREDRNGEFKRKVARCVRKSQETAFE
| Sequence | lacZ reporter activity |
| --- | --- |
| RYRQMEERITCPICIDSHIRLVFQCGHGACAPCGSALSACPICRQPIRDRIQIF (MIB2 RING domain (UniProt Q96AX9)) | 0 |
| QVQSRTKIEECVVCSDKKAAVLFQPCGHMCACENCANLMKKCVQCRAVVERRVPFI (MIB1 RING domain (UniProt Q86YT6)) | 0 |
| FVKTVEDKYKCEKCHLVLCSPKQTECGHRFCESCMAALLSSSSPKCTACQESIVKDKVF (TRAF3 RING domain (UniProt Q13114)) | 0 |
| B1 (RNF183 RING domain) | 0 |
| B2 (MKRN2 RING domain) | 0 |
| MNDVLENELQCIICSEYFIEAVTLNCAHSFCSYCINEWMKRKIECPICRKDIKSKTYSL (RNF8 RING domain (UniProt O76064)) | 0 |

Sample 4 — technique: protein binding microarray; molecule type: double-stranded DNA, one strand shown; medium: in vitro; concentration: not given; relative to: not given; direction: higher = stronger binding
Target: Histone acetyltransferase KAT6A, winged helix 2, GST fusion (KAT6A, Homo sapiens, UniProt Q92794, residues 85-181)
Notes: 8-mer, flanks averaged, mean of 2 arrays, mostly near background
Residues (chain): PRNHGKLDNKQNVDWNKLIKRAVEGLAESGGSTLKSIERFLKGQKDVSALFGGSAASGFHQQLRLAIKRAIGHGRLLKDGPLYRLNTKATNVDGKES
| Oligonucleotide | E-score |
| --- | --- |
| CAGTCCGA | 0.0787 |
| AGAGTGGG | 0.109 |
| AGTGTACG | -0.154 |
| AATATCGC | -0.108 |
| AACGAACG | 0.0725 |
| GCGACGTA | -0.0059 |
| ACTTCCAC | -0.0864 |
| AGTGCTCC | -0.0498 |
| AAGCATCT | -0.121 |
| CGGTCTAG | -0.103 |
| GATTGACC | -0.148 |
| ATGTGGTG | -0.191 |

Some of these lines once more (sample 2):
| Oligonucleotide | bound/input enrichment [ratio] |
| --- | --- |
| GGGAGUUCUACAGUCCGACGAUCGCUUUGGACCUUGGAGCCGAACCAGGGAGUGAGCAAAAAUAAAGCAGACUUGUAAAAUUAUAGCCACAUGCAGCUGCAUAACAAUAGCACUACCACUAGCAGCUGUGUUAAGAUAUUUAUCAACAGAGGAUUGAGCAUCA | 0.518 |
| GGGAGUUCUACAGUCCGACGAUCUUCAGGCACAACUGACUGGUUCACAGCAUUCCUUACAUAGUUACCUAGCAAAUACAGGUGUGGUUAAUUUUCAGGAAACAACCAGGCAGUCAUCUUUACCUUGUAGCCCAGUCAGAGAUUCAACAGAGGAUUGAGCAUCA | 0.996 |
| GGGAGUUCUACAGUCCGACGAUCCAUUAACACAUGAAAUGUCUCCAGGGGGGUAUUAGAUUUGAUUUCUUACAUAUAAAACAAACCAACCAACCAUUUUUAAAGUAGAAGAGGGUUUUAGAUAGUGAAUAAAAUAUUCUUUUUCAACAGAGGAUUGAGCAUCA | 1.53 |
| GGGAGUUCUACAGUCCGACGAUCGUCAUCGGAUUGGAUGAAGACCGUCCCGAGUUACAACCAAACCAAUAGCUCCAUGGACUUCAGAAAUUACAUGAUGAGAGAUGAGAAUCUGGAACCGCUGCCCAAAAACUGGGAGAUGGCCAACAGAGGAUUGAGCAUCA | 0.416 |
